# Assay results pooled from the literature.
# “And” joins repeats or separate records; there may be more than shown. Numbers after ± are the reported error.
# CDK2: Cyclin-dependent kinase 2 (CDK2, Homo sapiens, UniProt P24941)
Compound,tested on,assay,test system,setting,how to read,endpoint,result
CN[C@H](CC(C)C)C(=O)N[C@H]1C(=O)N[C@@H](CC(N)=O)C(=O)N[C@H]2C(=O)N[C@H]3C(=O)N[C@H](C(=O)N[C@H](C(=O)O)c4cc(O)cc(O)c4-c4cc3ccc4O)[C@H](O)c3ccc(c(Cl)c3)Oc3cc2cc(c3O[C@@H]2O[C@H](CO)[C@@H](O)[C@H](O)[C@H]2O[C@H]2C[C@](C)(N)[C@H](O)[C@H](C)O2)Oc2ccc(cc2Cl)[C@H]1O,Enterococcus faecium,,Enterococcus faecalis,40 strains,,MIC90,1 µg/mL
Cc1ccc(CCC(=O)Nc2nnc(S(N)(=O)=O)s2)cc1,Enterococcus faecium,,HM-952,,,MIC,0.184 µM
Cc1c(CN(C)C(=O)/C=C/c2cnc3c(c2)CC(NC(=O)OC(C)(C)C)C(=O)N3)oc2ccccc12 (stereo not shown),Acinetobacter baumannii,broth microdilution,AR-0278,,,MIC,> 32 µg/mL
COC(=O)[C@H](Cc1c[nH]c2ccccc12)NCc1cc2ccccc2nc1OC,Pseudomonas aeruginosa,,,"4 µg/mL, without pentamidine",relative to: control,growth,96.8%
CC(C)n1ncc2c(C(=O)NCC3(C)CNC3)cc(C3CC3)nc21,coxsackievirus B3,CPE,Vero,0.5 µM,,cell protection,57.7% and 59.3%
O=C(Cn1cnc([N+](=O)[O-])n1)Nc1ccc(N2CCOCC2)c(Cl)c1,CDK2,binding,,,,Kd,> 100 µM
Brc1ccc2nc(SCc3ccccc3)c(CNCCC3CCN(C4CCCC4)CC3)cc2c1,Acinetobacter baumannii,"NADH-driven proton pumping, ACMA quenching",inverted membrane vesicles,32 µg/mL,,inhibition,87%
Cc1c2c(nn1C)CSCc1cc(n(C)n1)CSc1cc(c3ccccc3c1)OCCCc1c(C(=O)O)n(C)c3c-2c(Cl)ccc13,Staphylococcus aureus,broth microdilution,clinical isolates,,,MIC50,12.5 µM
c1ccc(CSc2nc3ccc(-c4ccccc4)cc3cc2CNCCC2CCN(C3CCCC3)CC2)cc1,Acinetobacter baumannii,"NADH-driven proton pumping, ACMA quenching",inverted membrane vesicles,2 µg/mL,,inhibition,7%
C=C[C@]1(C)C[C@@H](OC(=O)CS[C@@H]2C[C@H]3CC[C@@H](C2)N3C)[C@]2(C)[C@H](C)CC[C@]3(CCC(=O)[C@H]32)[C@@H](C)[C@@H]1O,Streptococcus agalactiae,,25 clinical isolates,,,MIC50,0.0312 µg/mL
CC1=CC(=O)CC(C)(C)[C@@]1(O)/C=C/C(C)=C\C(=O)O,Arabidopsis thaliana,,"PYL4 overexpression, seeds",1 µM,,number of germinated seeds,4 and 2
CC1(C)S[C@@H]2[C@H](NC(=O)[C@H](N)c3ccccc3)C(=O)N2[C@H]1C(=O)O,Streptococcus agalactiae,,25 clinical isolates,,,MIC50,1 µg/mL
Cc1nc(NCCCCNc2ccnc3cc(Cl)ccc23)nc(-c2ccccc2[N+](=O)[O-])c1C(=O)OC(C)C,feline herpesvirus,viral replication,CRFK,,,EC50,> 20 µM
CC1=C[C@H](O/C=C2/C(=O)O[C@@H]3c4ccccc4C[C@H]23)OC1=O (racemic),Arabidopsis thaliana,,"atd14-1 mutant, seedlings",1 µM,,hypocotyl length,7.06 mm
N=C(N)c1ccc(OCCCCCOc2ccc(C(=N)N)cc2)cc1,Escherichia coli,outer membrane permeabilization,BW25113,"60 min, added: NPN 0.01 mM",,concentration for maximal NPN uptake,3.1 µg/mL
C[C@@H]1[C@H](O)[C@@H](C)/C=C/C=C/C=C/C=C/C=C/C=C/C=C/[C@H](O[C@@H]2O[C@H](C)[C@@H](O)[C@H](N)[C@@H]2O)C[C@@H]2O[C@](O)(C[C@@H](O)C[C@@H](O)[C@H](O)CC[C@@H](O)C[C@@H](O)CC(=O)O[C@H]1C)C[C@H](O)[C@H]2C(=O)O,Aspergillus fumigatus,"XTT, preformed biofilm",Af 293,"2 × MIC, 24 h",,biofilm mass reduction,65 to 68%
CC(=O)NC[C@H]1CN(c2ccc(N3CCOCC3)c(F)c2)C(=O)O1,Enterococcus faecium,,NR-31937,,,MIC,2.96 µM
CO[C@H]1/C=C/O[C@@]2(C)Oc3c(C)c(O)c4c(c3C2=O)C2=NC3(CCN(CC(C)C)CC3)NC2=C(NC(=O)/C(C)=C\C=C\[C@H](C)[C@H](O)[C@@H](C)[C@@H](O)[C@@H](C)[C@H](OC(C)=O)[C@@H]1C)C4=O,Mycobacteroides abscessus,"intracellular growth, Hill fit","THP-1 derived macrophages, ATCC 19977",,,IC50,685 nM
CC[C@H]1OC(=O)[C@H](C)[C@@H](O[C@H]2C[C@@](C)(OC)[C@@H](O)[C@H](C)O2)[C@H](C)[C@@H](O[C@@H]2O[C@H](C)C[C@H](N(C)C)[C@H]2O)[C@](C)(O)C[C@@H](C)/C(=N\OCOCCOC)[C@H](C)[C@@H](O)[C@]1(C)O,Enterococcus faecium,agar dilution,"vancomycin-susceptible, 64 isolates",,,MIC50,64 µg/mL
N=C(N)c1cccc(OCc2ccc(COc3cccc(C(=N)N)c3)cc2)c1,Escherichia coli,checkerboard,mcr-3 polymyxin-resistant,"concentration not given, added: rifampicin",,MIC of compound in combination,50 µg/mL
C[C@@H](O)[C@H]1C(=O)N2C(C(=O)O)=C(SCCN=CN)C[C@H]12,Acinetobacter baumannii,,"0403, female ICR mice, peritonitis, spleen",dose not given,,bacterial load,2.22 log CFU and 3.22 log CFU and 3.12 log CFU and 2.52 log CFU and 3 log CFU
COC[C@H]1O[C@@H]2O[C@H]3[C@H](OC)[C@@H](OC)[C@@H](O[C@H]4[C@H](OC)[C@@H](OC)[C@@H](O[C@H]5[C@H](OC)[C@@H](OC)[C@@H](O[C@H]6[C@H](OC)[C@@H](OC)[C@@H](O[C@H]7[C@H](OC)[C@@H](OC)[C@@H](O[C@H]8[C@H](OC)[C@@H](OC)[C@@H](O[C@H]1[C@H](OC)[C@H]2OC)O[C@@H]8COC)O[C@@H]7COC)O[C@@H]6COC)O[C@@H]5COC)O[C@@H]4COC)O[C@@H]3COC,Escherichia coli,"LuxR reporter, agonist",DH5α sensor strain,4 µM,,bioluminescence,838 ± 25 RLU
CN[C@H](CC(C)C)C(=O)N[C@H]1C(=O)N[C@@H](CC(N)=O)C(=O)N[C@H]2C(=O)N[C@H]3C(=O)N[C@H](C(=O)N[C@H](C(=O)O)c4cc(O)cc(O)c4-c4cc3ccc4O)[C@H](O)c3ccc(c(Cl)c3)Oc3cc2cc(c3O[C@@H]2O[C@H](CO)[C@@H](O)[C@H](O)[C@H]2O[C@H]2C[C@](C)(N)[C@H](O)[C@H](C)O2)Oc2ccc(cc2Cl)[C@H]1O,Enterococcus faecium,agar dilution,compound-intermediate isolates,,,MIC90,8 µg/mL
Cc1cccc(NS(=O)(=O)c2cc(C(=O)Nc3ccccc3C(=O)N3CCOCC3)ccc2Cl)c1,CDK2,binding,,,,Kd,> 100 µM
C=C[C@]1(C)C[C@@H](OC(=O)CSCCN(CC)CC)[C@]2(C)[C@H](C)CC[C@]3(CCC(=O)[C@H]32)[C@@H](C)[C@@H]1O,Mycoplasma gallisepticum,,"infected chickens, lung","oral, 40 mg/kg",,lung mycoplasma count,3.63 log10 CFU/mL and 3.42 log10 CFU/mL and 3.69 log10 CFU/mL and 3.23 log10 CFU/mL and 3.02 log10 CFU/mL and 3.31 log10 CFU/mL and 3.17 log10 CFU/mL and 3.11 log10 CFU/mL
COc1cc2cc(CNCCN3CCN(C)CC3)c(SCc3ccccc3)nc2c(OC)c1OC,Acinetobacter baumannii,"NADH-driven proton pumping, ACMA quenching",inverted membrane vesicles,32 µg/mL,,inhibition,74%
CC1(F)CN(C(=O)Cn2c(=O)c(C(=O)NCc3ccc(Cl)cc3)cc3nc(N4CCNC4=O)cnc32)C1,herpes simplex virus 2,viral cytopathic effect,"Vero, G",120 h,,EC50,0.85 µM
COC[C@H]1O[C@@H]2O[C@@H]3[C@@H](OC)[C@@H](OC)[C@@H](O[C@@H]4[C@@H](OC)[C@@H](OC)[C@@H](O[C@@H]5[C@@H](OC)[C@@H](OC)[C@@H](O[C@@H]6[C@@H](OC)[C@@H](OC)[C@@H](O[C@@H]7[C@@H](OC)[C@@H](OC)[C@@H](O[C@@H]1[C@@H](OC)[C@H]2OC)O[C@@H]7COC)O[C@@H]6COC)O[C@@H]5COC)O[C@@H]4COC)O[C@@H]3COC,Escherichia coli,"LuxR reporter, antagonist",DH5α sensor strain,"4 µM, added: OHHL 200 nM",,inhibition,1 ± 1%
Cc1cc(C)c2sc(NC(=O)c3cc4ccccc4o3)nc2n1,Dengue virus 2,"cytopathic effect, neutral red uptake","Huh-7, New Guinea C",,,EC50,> 32 µM
CNC(C)C1CCC(N)C(OC2C(N)CC(N)C(OC3OCC(C)(O)C(NC)C3O)C2O)O1 (stereo not shown),Salmonella enterica serovar Uganda,broth microdilution,clinical isolate RKI-No 206/14,,,MIC,> 8 µg/mL
COC(=O)[C@@H](CCSC)NCc1cc2ccccc2nc1SC,Pseudomonas aeruginosa,,,"128 µg/mL, added: pentamidine 50 µM",relative to: control,growth,78%
Nc1nc(-c2ccccc2)nc2[nH]nc(Nc3ccc(C(F)(F)F)cc3)c12,coxsackievirus B3,,"31-1-93, NMRI mice, CVB3 chronic myocarditis","oral, 100 mg/kg twice daily, day 1, dosed days 1 to 7, score scale 0 to 7",direction not given,clinical score,0
O=c1[nH]c2ncsc2c(=O)n1O,Echinochloa crus-galli,glasshouse pot,,"750 g/ha, 21 days, post-emergence",,inhibition,0%
C[C@]12CC[C@@H]3c4ccc(O)cc4CC[C@H]3[C@@H]1CC[C@@H]2O,Arabidopsis thaliana,"qRT-PCR, refers to: RAB18","estradiol-inducible CLE5 line, seedlings","1 µM, β-estradiol induced, unit not given",relative to: mock,mRNA level,2.95 and 3.04 and 3.31 and 2.67 and 2.89 and 3.2
CC(=O)NC[C@H]1CN(c2ccc(N3CCOCC3)c(F)c2)C(=O)O1,Staphylococcus,,"MRSA-38, mouse systemic infection",intravenous,survival,ED50,13.7 mg/kg
CC(=O)Oc1ccccc1C(=O)Nc1ncc([N+](=O)[O-])s1,Cryptosporidium parvum,,HCT-8,"EC50, 6 h",relative to: DMSO control,parasite number,73.3% and 86.4% and 95.6% and 73.8%
O=C(N1CCc2ccccc21)n1ccnn1,Arabidopsis thaliana,,"wild type, seedlings","100 µM, continuous red light, added: 0.3 µM karrikin KAR2",,hypocotyl length,1.01 mm
Cc1cc(OC(C)C)ccc1C(=O)C(C)(C)NC(=O)c1sccc1C,Botrytis allii,mycelial growth,PSA medium,20 °C,,EC50,0.22 µg/mL
COc1cc2c(cc1C(=O)Nc1ccc(C(C)(C)C)cc1)CCCCC2,Dengue virus 2,viral replication,HEK293,,,EC90,600 nM
CCOC(=O)c1c(C)nc(NCCCNc2ccnc3cc(Cl)ccc23)nc1C,feline herpesvirus,viral replication,CRFK,,,EC50,> 100 µM

# For quick reference, copied from above:
Compound,tested on,assay,test system,setting,how to read,endpoint,result
Brc1ccc2nc(SCc3ccccc3)c(CNCCC3CCN(C4CCCC4)CC3)cc2c1,Acinetobacter baumannii,"NADH-driven proton pumping, ACMA quenching",inverted membrane vesicles,32 µg/mL,,inhibition,87%
CC(=O)Oc1ccccc1C(=O)Nc1ncc([N+](=O)[O-])s1,Cryptosporidium parvum,,HCT-8,"EC50, 6 h",relative to: DMSO control,parasite number,73.3% and 86.4% and 95.6% and 73.8%
